Values quoted from earlier work, collected from citations in different studies.
Each line is one published result; not all experiments were run side by side. ± gives the spread as reported. ≈ marks a conversion by molar mass, not a printed value.
Sequence of UniProt P0DOF5 (whole entry, looked up): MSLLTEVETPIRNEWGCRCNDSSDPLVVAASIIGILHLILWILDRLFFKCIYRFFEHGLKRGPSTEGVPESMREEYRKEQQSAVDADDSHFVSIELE
Sequence of UniProt P41143 (whole entry, looked up): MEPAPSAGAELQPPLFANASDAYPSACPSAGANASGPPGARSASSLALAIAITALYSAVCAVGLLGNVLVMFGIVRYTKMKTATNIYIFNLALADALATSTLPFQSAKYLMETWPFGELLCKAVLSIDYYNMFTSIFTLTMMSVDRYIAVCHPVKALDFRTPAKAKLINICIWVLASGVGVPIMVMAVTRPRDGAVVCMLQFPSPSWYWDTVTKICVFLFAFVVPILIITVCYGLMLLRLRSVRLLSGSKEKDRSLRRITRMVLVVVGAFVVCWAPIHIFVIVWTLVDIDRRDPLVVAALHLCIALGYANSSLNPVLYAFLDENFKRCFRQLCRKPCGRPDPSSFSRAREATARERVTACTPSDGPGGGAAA
Sequence of UniProt Q86U86 (whole entry, looked up): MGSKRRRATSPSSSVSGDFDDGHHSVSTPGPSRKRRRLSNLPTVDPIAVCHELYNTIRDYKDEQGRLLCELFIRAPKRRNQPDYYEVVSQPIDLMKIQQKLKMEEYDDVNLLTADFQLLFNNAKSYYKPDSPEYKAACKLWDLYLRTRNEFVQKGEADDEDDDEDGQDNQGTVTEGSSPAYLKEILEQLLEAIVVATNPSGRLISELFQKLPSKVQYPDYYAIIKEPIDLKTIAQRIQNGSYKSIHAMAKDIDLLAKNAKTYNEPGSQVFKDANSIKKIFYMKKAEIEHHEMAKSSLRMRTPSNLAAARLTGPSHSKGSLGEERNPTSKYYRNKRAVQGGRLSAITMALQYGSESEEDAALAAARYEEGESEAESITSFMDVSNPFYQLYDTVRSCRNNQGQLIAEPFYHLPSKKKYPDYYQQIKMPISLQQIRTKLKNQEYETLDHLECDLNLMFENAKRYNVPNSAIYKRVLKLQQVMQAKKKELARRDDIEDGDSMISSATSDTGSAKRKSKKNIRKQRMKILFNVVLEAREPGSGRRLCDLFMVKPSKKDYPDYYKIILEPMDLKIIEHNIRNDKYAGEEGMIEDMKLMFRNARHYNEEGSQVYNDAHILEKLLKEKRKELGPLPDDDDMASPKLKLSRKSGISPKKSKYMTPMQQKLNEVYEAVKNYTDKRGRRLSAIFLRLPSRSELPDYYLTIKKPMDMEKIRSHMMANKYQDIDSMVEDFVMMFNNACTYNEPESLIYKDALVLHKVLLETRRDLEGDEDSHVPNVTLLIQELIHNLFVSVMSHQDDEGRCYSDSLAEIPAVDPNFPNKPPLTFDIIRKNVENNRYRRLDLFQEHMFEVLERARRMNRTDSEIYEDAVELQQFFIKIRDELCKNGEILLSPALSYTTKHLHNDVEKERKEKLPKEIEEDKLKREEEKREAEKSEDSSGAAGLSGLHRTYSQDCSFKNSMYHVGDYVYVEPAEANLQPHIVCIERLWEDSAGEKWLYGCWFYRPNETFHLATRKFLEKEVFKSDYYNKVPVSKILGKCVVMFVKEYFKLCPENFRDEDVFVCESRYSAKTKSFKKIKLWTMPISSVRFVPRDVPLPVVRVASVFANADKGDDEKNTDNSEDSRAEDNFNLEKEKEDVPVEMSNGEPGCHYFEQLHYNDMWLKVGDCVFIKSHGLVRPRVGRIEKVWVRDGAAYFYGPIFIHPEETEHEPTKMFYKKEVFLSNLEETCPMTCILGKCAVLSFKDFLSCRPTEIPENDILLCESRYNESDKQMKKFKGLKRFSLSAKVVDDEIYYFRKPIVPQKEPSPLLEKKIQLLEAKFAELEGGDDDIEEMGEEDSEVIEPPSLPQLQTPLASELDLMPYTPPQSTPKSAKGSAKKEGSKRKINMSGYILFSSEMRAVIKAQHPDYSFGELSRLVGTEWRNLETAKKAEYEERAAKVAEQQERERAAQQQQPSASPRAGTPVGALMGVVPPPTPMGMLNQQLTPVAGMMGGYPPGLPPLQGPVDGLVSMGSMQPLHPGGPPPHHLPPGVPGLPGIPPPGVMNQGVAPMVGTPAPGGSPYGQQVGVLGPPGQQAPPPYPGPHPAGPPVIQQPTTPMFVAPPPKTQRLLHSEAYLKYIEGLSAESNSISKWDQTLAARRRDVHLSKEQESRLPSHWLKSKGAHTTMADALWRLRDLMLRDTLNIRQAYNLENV

SMILES	tested on	assay	test system	setting	how to read	measurement	result
CC[C@H](C)C(=O)N1CCC(NC(=O)Nc2ccc(OC(F)(F)F)c(F)c2)CC1	BCRP	inhibitor	–	–	–	IC50	1400 nM
CC1=C(C)C(=O)OC(C(C)(O)C2(O)CCC3(O)C4CC5OC56C(O)C=CC(=O)C6(C)C4CCC32C)C1 (stereo not shown)	L5178Y	cell growth	–	–	–	IC50	990 nM
C=C(C)[C@@H]1CCC(CO)=C[C@H]1c1c(O)cc(CCCCC)cc1O	–	–	healthy volunteers	dose not given, steady state, with: stiripentol	–	decrease in AUC(0-tau)	28%
[O-][N+]1=C(c2ccccc2)C2=NCCCN2c2ncccc21	–	–	octanol/PBS	–	–	logP	0.311
CC1=C(C)C(=O)OC(C(C)(O)C2(O)CCC3(O)C4CC5OC56CC=CC(=O)C6(C)C4CCC32C)C1 (stereo not shown)	MCF7/BUS	–	–	–	–	IC50	420 nM
CC[C@H](C)[C@H](NC(=O)[C@H](N)Cc1ccc(O)cc1)C(=O)N[C@H]1CSSC[C@@H](C(=O)N(C)[C@H](C(N)=O)[C@@H](C)CC)NC(=O)[C@H](CCCNC(=N)N)NC(=O)[C@H](Cc2c[nH]cn2)NC(=O)[C@H](C)NC(=O)CN(C)C(=O)[C@H](Cc2c[nH]c3ccccc23)NC(=O)[C@H](CC(=O)O)NC(=O)[C@H](CCC(N)=O)NC(=O)[C@H](Cc2cn(C)c3ccccc23)NC(=O)[C@H](C(C)C)NC1=O	–	–	–	–	–	plasma half-life	12 h
CC[C@H](C)[C@H](NC(=O)[C@H](CCCCN)NC(=O)[C@H](CCCCN)NC(=O)[C@H](Cc1ccccc1)NC(=O)[C@H](CC(C)C)NC(=O)[C@H](CCCCN)NC(=O)[C@H](Cc1c[nH]c2ccccc12)NC(=O)[C@H](CCCCN)NC(C)=O)C(=O)NCC(=O)N[C@@H](C)C(=O)N[C@H](C(=O)N[C@@H](CC(C)C)C(=O)N[C@@H](CCCCN)C(=O)N[C@H](C(=O)N[C@@H](CC(C)C)C(N)=O)C(C)C)C(C)C	–	–	trifluoroethanol	–	–	alpha-helical content	~85%
CCOC(=O)C1C(OC(c2ccc(Cl)cc2)c2ccc(Cl)cc2)CC2CCC1N2C (single isomer, unassigned)	norepinephrine transporter	–	–	–	–	Ki	3350 ± 154 nM
Br.Br.Br.CNC1C(O)C(NC)C2OC3(O)C(OC(C)C[C@H]3NC(=O)Cc3ccccn3)OC2C1O (stereo partly shown)	–	–	human liver microsomes	–	–	half-life	> 10 h
CN[C@H](CC(C)C)C(=O)N[C@H]1C(=O)N[C@@H](CC(N)=O)C(=O)N[C@H]2C(=O)N[C@H]3C(=O)N[C@H](C(=O)N[C@H](C(=O)O)c4cc(O)cc(O)c4-c4cc3ccc4O)[C@H](O)c3ccc(c(Cl)c3)Oc3cc2cc(c3O[C@@H]2O[C@H](CO)[C@@H](O)[C@H](O)[C@H]2O[C@H]2C[C@](C)(NCc3ccc(-c4ccc(Cl)cc4)cc3)[C@H](O)[C@H](C)O2)Oc2ccc(cc2Cl)[C@H]1O	–	–	mouse	intravenous, 10 mg/kg	–	clearance	1.23 mL/min/kg
O=C(N[C@@H](Cc1coc2ccccc12)B(O)O)[C@@H]1C[C@H]2CC[C@@H]1O2	–	–	rat	oral, 10 mg/kg once daily, repeated dosing	–	tolerability	not toxic
CC(C)CCO	–	–	rat	intraperitoneal	–	LD50	813 mg/kg
O=[N+]([O-])c1ccc(C2=[N+]([O-])c3ccccc3N3CCCN=C23)cc1	–	–	octanol/PBS	–	–	logP	0.657
C=C(C)C12OC3(c4ccccc4)OC1C1C4OC4(CO)C(O)C4(O)C(=O)C(C)=CC4C1(O3)C(C)C2OC(=O)c1ccccc1 (stereo not shown)	–	–	mouse 22Rv1 and PDX models	intraperitoneal, 0.5 mg/kg 5 times weekly, end of dosing	–	body weight loss	~9%
CCCCCc1cc(O)c2c(c1)OC(C)(C)C1CCC(C)=CC21 (single isomer, unassigned; (-))	–	–	human, plasma	inhalation, 54 mg	–	Cmax	254 nM
C[C@H]1[C@H](OC(=O)CC[C@@H](C)C2CCC3C4C(CC[C@@]32C)[C@@]2(C)CC[C@@H](O)CC2C[C@@H]4O)O[C@@H]2O[C@@]3(C)CCC4[C@H](C)CC[C@@H]1[C@]42OO3 (stereo partly shown)	–	–	cell culture medium	up to 24 h	–	stability	stable
CNC(=O)N[C@H]1CC[C@H](CCN2CCN(c3cccc(Cl)c3Cl)CC2)CC1	–	–	human, plasma	–	–	t1/2	24 to 48 h
COC[C@@H](NC(C)=O)C(=O)NCc1ccc(OCc2ccc(F)cc2)cc1	–	behavioural toxicity	rat	oral	–	TD50	> 500 mg/kg
CN[C@H](CC(C)C)C(=O)N[C@H]1C(=O)N[C@@H](CC(N)=O)C(=O)N[C@H]2C(=O)N[C@H]3C(=O)N[C@H](C(=O)N[C@H](C(=O)NCCCNC(=N)N)c4cc(O)cc(O)c4-c4cc3ccc4O)[C@H](O)c3ccc(c(Cl)c3)Oc3cc2cc(c3O[C@@H]2O[C@H](CO)[C@@H](O)[C@H](O)[C@H]2O[C@H]2C[C@](C)(NCc3ccc(-c4ccc(Cl)cc4)cc3)[C@H](O)[C@H](C)O2)Oc2ccc(cc2Cl)[C@H]1O	–	–	mouse	intravenous, 50 mg/kg, maximum tolerated dose	–	clearance	1.5 mL/min/kg
O=C(CO)COP(=O)(O)O	–	–	water	carbon acid	–	pKa	~18

SMILES	tested on	assay	test system	setting	how to read	measurement	result
O=C(OCC[18F])C1C2CCC(CC1c1ccc(/C=C\I)cc1)N2 (stereo not shown)	SERT	HRRT PET	awake rhesus monkey, midbrain	–	–	time to peak uptake	> 75 min
CSCC[C@H](NC(=O)[C@H](Cc1c[nH]c2ccccc12)NC(=O)[C@H](Cc1c[nH]c2ccccc12)NC(=O)[C@H](CCC(=O)O)NC(=O)[C@@H]1CCCN1C(=O)[C@H](CCCNC(=N)N)NC(=O)CNC(=O)[C@@H](N)C(C)C)C(=O)N[C@@H](CC(=O)O)C(=O)N[C@@H](Cc1ccc(O)cc1)C(=O)N[C@@H](CCC(N)=O)C(=O)N[C@@H](CCCCN)C(=O)N[C@@H](CCCNC(=N)N)C(=O)N[C@@H](Cc1ccc(O)cc1)C(=O)NCC(=O)O	–	–	human, hairy skin	intracutaneous	–	itch threshold concentration	> 1 mM
N[C@@H](CN[C@@H](CN[C@@H](CC(=O)O)C(=O)O)C(=O)O)C(=O)O	–	–	mouse	intravenous	–	LD50	> 150 mg/kg
COc1cccc(-c2cccc(OC)n2)n1.[Ru+2].c1cnc2c(c1)ccc1cccnc12.c1cnc2c(c1)ccc1cccnc12	–	–	octanol/water	pH 7.4	–	log D	-1.3
CC(C)[C@@H](CN1CC[C@@](C)(c2cccc(C(N)=O)c2)[C@@H](C)C1)NC(=O)[C@H]1Cc2ccc(O)cc2CN1	OPRD1 (Homo sapiens, UniProt P41143)	antagonist	–	with: DPDPE	–	Ke	478 ± 75 nM
CC[C@H](C)[C@H](NC(=O)[C@H](CCCCN)NC(=O)[C@H](CCCCN)NC(=O)[C@H](C)NC(=O)[C@@H](NC(=O)[C@H](C)NC(=O)[C@H](CC(C)C)NC(=O)[C@H](CC(C)C)NC(=O)[C@H](C)NC(=O)[C@H](CCCCN)NC(=O)[C@H](CC(C)C)NC(=O)[C@H](CC(N)=O)NC(=O)[C@@H](N)CC(C)C)C(C)C)C(=O)N[C@@H](CC(C)C)C(N)=O	Candida albicans	–	ATCC 10231	–	–	MIC	100 µM (≈ 151 µg/mL)
NC12C3CCC4C3C3C(CCC31)C42	Matrix protein 2 (Influenza A virus, UniProt P0DOF5)	inhibitor	–	100 µM	–	inhibition	4.8 ± 2.8%
Cc1ccc(Sc2cc(O)ccc2N2CCNCC2)c(C)c1	–	–	plasma	vortioxetine	baseline: metabolite AUC over vortioxetine AUC	metabolic ratio	≤ 0.04
O=C([O][Ti+2][O]C(=O)c1ccc(P(c2ccccc2)c2ccccc2)cc1)c1ccc(P(c2ccccc2)c2ccccc2)cc1.[Cl][Au].[Cl][Au].c1cc[cH-]c1.c1cc[cH-]c1	–	–	C57BL/6 mouse	–	–	lethal dose	15 mg/kg/day
N=C(N)NCCC[C@@H]1NC(=O)[C@H](CCCCNC(=O)CCOCCOCCOCCOCCNC(=O)CC[C@H](NC(=O)CCOCCOCCOCCOCCNC(=O)c2ccc(NN)nc2)C(=O)NCCOCCOCCOCCOCCC(=O)NCCCC[C@@H]2NC(=O)[C@@H](Cc3ccccc3)NC(=O)[C@H](CC(=O)O)NC(=O)CNC(=O)[C@H](CCCNC(=N)N)NC2=O)NC(=O)[C@@H](Cc2ccccc2)NC(=O)[C@H](CC(=O)O)NC(=O)CNC1=O [technetium-99m labelled]	–	–	athymic nude mouse, U-87 MG xenograft, tumour	dose not given, 120 min	–	tumour uptake	9.74 ± 3.22 %ID/g
[Mn+2].[NH3+]CCN1CCN(CC(=O)[O-])Cc2cccc(n2)CN(CC(=O)[O-])CC1	–	–	–	pH 6.0, 37 °C, with: 25 mM Zn(II)	–	half-life	54.4 h
C[C@]12CC[C@H](OC(=O)NC3CCNCC3)C[C@H]1CC[C@@H]1[C@@H]2CC[C@]2(C)[C@@H](c3ccc(=O)oc3)CC[C@]12O	–	–	–	–	–	solubility	2500 µg/mL (≈ 4.88 mM)
COc1ccc(CCN2CCN(C/C=C/[125I])CC2)cc1OC	–	–	mouse, whole brain	15 to 120 min	–	brain clearance	75%
CCCCCn1cc(C(=O)c2ccc3c(c2)CC(C)(C)C3)c2ccccc21	cannabinoid receptor CB2	binding	–	–	–	Ki	4.9 ± 0.2 nM
C=C(C)[C@@H]1CCC(C(=O)O)=C[C@H]1c1c(O)cc(CCCCC)cc1O	–	–	healthy volunteers	dose not given, steady state, with: valproate	–	increase in AUC(0-tau)	32%
O=C(C=CN1C2CCC1c1ncnc(NC3CC3)c1C2)c1ccccc1O (stereo not shown)	Protein polybromo-1, BD2 (PBRM1, Homo sapiens, UniProt Q86U86)	binding, isothermal titration calorimetry	–	–	–	Kd	190 nM
CC(C)[C@@H]1CC[C@@H](C)C[C@H]1C(=O)Nc1ccc(CC#N)cc1	–	–	rat	diet, 90 days	–	NOAEL	100 mg/kg/day
CSCC[C@H](NC(=O)[C@H](CC(C)C)NC(=O)CNC(=O)[C@H](Cc1ccccc1)NC(=O)[C@H](Cc1ccccc1)NC(=O)[C@H](CCC(N)=O)NC(=O)[C@H](CCC(N)=O)NC(=O)[C@@H]1CCCN1C(=O)[C@H](CCCCN)NC(=O)[C@@H]1CCCN1C(=O)[C@@H](N)CCCN=C(N)N)C(N)=O	–	–	diabetic mice	–	–	half-life	< 0.0167 h
OC1C=Cc2c(cc3ccc4cccc5c6ccccc6c2c3c45)C1O (stereo not shown)	–	–	human liver microsomes	glucuronidation	–	Km	25.9 µM
CCCCCCCC(=O)OC[C@H](NC(=O)[C@H](CO)NC(=O)CN)C(=O)N[C@@H](Cc1ccccc1)C(=O)N[C@@H](CC(C)C)C(=O)N[C@@H](CO)C(=O)N1CCC[C@H]1C(=O)N[C@@H](CCC(=O)O)C(=O)N[C@@H](Cc1cnc[nH]1)C(=O)N[C@@H](CCC(N)=O)C(=O)N[C@@H](CCCNC(=N)N)C(=O)N[C@H](C(=O)N[C@@H](CCC(N)=O)C(=O)N[C@@H](CCC(N)=O)C(=O)N[C@@H](CCCNC(=N)N)C(=O)N[C@@H](CCCCN)C(=O)N[C@@H](CCC(=O)O)C(=O)N[C@@H](CO)C(=O)N[C@@H](CCCCN)C(=O)N[C@@H](CCCCN)C(=O)N1CCC[C@H]1C(=O)N1CCC[C@H]1C(=O)N[C@@H](C)C(=O)N[C@@H](CCCCN)C(=O)N[C@@H](CC(C)C)C(=O)N[C@@H](CCC(N)=O)C(=O)N1CCC[C@H]1C(=O)N[C@@H](CCCNC(=N)N)C(=O)O)C(C)C	–	item: total ghrelin	–	intravenous bolus, 1 and 5 µg/kg	–	half-life	0.45 to 0.517 h

A few entries again:
SMILES	tested on	assay	test system	setting	how to read	measurement	result
OC1C=Cc2c(cc3ccc4cccc5c6ccccc6c2c3c45)C1O (stereo not shown)	–	–	human liver microsomes	glucuronidation	–	Km	25.9 µM
C=C(C)C12OC3(c4ccccc4)OC1C1C4OC4(CO)C(O)C4(O)C(=O)C(C)=CC4C1(O3)C(C)C2OC(=O)c1ccccc1 (stereo not shown)	–	–	mouse 22Rv1 and PDX models	intraperitoneal, 0.5 mg/kg 5 times weekly, end of dosing	–	body weight loss	~9%
CC[C@H](C)C(=O)N1CCC(NC(=O)Nc2ccc(OC(F)(F)F)c(F)c2)CC1	BCRP	inhibitor	–	–	–	IC50	1400 nM
